Measurements of several laboratories.
Every numbered part comes from another study and shows a few of its results, in no order.
Chain of UniProt Q13131 (whole entry, looked up): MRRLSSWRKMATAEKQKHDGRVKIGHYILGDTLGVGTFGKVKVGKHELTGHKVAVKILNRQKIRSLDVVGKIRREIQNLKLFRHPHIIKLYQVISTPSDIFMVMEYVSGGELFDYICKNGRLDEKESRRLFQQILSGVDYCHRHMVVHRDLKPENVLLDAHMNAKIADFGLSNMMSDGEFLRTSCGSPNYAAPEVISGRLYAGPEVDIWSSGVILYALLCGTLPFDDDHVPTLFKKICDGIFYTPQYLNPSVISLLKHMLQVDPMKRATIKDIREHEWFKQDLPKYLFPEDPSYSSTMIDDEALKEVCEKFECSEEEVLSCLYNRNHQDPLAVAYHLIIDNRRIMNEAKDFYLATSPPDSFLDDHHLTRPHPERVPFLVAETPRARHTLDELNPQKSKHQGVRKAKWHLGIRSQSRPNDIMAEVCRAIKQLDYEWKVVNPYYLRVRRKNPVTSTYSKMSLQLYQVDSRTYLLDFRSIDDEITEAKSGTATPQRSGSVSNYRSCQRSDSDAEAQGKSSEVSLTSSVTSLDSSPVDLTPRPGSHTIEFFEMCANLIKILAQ
Chain of UniProt Q15759 (whole entry, looked up): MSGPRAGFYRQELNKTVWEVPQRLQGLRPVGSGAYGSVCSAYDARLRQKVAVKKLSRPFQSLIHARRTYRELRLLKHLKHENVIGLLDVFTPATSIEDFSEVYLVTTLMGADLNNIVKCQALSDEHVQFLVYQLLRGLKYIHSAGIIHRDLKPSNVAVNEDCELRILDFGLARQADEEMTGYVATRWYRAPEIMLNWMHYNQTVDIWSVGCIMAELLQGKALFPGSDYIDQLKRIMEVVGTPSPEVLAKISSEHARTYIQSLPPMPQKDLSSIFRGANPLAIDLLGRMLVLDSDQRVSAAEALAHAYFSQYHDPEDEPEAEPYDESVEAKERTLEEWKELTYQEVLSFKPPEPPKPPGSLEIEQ
Chain of UniProt P31751 (whole entry, looked up): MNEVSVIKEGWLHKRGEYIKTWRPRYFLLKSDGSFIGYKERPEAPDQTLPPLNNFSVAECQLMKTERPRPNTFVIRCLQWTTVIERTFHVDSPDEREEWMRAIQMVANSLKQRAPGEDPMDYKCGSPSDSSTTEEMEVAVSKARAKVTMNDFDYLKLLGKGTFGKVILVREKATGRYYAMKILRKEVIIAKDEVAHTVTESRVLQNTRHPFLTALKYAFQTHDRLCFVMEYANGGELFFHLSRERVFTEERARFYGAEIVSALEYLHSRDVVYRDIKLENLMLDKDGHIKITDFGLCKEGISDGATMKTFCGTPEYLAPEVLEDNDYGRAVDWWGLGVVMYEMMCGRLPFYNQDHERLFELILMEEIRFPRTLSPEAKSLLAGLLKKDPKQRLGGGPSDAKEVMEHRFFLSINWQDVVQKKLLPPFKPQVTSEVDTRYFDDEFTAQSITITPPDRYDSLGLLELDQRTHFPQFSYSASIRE
Chain of UniProt Q96L34 (whole entry, looked up): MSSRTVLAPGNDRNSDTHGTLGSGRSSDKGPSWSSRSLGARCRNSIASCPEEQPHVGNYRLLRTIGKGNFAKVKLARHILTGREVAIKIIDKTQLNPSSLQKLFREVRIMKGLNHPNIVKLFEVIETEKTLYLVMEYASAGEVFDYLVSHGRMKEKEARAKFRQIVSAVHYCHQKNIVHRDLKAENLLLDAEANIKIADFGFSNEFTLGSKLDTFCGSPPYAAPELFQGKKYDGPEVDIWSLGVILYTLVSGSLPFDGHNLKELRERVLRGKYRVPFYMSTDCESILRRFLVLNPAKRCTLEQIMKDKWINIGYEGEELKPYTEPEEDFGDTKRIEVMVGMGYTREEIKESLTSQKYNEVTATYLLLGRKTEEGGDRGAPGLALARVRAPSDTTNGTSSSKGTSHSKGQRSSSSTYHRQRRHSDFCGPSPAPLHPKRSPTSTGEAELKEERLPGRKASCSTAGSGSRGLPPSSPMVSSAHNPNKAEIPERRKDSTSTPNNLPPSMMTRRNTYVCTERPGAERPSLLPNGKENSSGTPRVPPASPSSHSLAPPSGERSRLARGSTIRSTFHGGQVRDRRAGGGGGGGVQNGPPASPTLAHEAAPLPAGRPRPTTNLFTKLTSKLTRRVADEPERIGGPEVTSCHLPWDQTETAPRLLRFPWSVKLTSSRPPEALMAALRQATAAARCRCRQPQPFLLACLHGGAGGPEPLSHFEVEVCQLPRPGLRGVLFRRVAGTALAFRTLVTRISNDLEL
Chain of UniProt P49761 (whole entry, looked up): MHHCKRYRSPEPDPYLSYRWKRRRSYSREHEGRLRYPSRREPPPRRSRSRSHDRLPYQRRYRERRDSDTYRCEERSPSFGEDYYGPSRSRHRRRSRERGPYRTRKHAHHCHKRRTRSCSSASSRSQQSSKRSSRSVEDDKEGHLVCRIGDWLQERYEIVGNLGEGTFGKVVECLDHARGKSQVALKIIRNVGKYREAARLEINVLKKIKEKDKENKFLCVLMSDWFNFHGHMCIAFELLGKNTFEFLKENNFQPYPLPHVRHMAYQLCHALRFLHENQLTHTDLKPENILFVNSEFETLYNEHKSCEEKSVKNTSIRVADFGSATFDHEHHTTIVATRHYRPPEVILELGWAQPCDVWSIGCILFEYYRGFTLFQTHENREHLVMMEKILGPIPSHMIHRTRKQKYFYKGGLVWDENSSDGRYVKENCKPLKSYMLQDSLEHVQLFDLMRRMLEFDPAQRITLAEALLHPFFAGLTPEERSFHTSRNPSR
Chain of UniProt P32298 (whole entry, looked up): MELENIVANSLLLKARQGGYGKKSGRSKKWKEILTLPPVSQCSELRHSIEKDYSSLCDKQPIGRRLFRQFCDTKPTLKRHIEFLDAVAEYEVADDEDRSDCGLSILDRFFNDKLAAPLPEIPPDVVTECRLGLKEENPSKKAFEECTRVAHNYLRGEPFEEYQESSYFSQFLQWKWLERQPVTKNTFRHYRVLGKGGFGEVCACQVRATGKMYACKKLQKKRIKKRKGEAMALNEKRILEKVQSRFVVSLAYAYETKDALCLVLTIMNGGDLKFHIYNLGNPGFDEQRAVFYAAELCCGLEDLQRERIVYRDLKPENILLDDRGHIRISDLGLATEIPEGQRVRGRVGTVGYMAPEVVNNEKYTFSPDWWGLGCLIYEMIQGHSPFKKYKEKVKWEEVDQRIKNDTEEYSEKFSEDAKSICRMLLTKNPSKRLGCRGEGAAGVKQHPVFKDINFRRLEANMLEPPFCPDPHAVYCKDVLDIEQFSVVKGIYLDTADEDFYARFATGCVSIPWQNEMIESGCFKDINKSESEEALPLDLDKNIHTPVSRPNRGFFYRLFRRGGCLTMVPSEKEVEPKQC
Chain of UniProt P42681 (whole entry, looked up): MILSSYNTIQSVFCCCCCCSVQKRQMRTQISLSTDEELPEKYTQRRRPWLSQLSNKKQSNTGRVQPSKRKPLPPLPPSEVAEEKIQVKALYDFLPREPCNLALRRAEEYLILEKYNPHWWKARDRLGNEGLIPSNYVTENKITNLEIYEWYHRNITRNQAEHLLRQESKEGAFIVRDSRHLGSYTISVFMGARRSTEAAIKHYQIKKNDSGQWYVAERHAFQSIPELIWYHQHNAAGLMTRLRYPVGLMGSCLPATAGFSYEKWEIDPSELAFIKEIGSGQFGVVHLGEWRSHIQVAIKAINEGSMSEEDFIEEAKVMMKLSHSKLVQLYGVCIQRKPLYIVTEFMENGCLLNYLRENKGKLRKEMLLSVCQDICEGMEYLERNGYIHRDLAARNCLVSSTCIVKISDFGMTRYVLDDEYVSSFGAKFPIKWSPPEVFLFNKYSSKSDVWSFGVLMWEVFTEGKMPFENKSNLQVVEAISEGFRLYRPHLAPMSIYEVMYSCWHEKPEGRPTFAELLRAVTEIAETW
Chain of UniProt Q9HAZ1 (whole entry, looked up): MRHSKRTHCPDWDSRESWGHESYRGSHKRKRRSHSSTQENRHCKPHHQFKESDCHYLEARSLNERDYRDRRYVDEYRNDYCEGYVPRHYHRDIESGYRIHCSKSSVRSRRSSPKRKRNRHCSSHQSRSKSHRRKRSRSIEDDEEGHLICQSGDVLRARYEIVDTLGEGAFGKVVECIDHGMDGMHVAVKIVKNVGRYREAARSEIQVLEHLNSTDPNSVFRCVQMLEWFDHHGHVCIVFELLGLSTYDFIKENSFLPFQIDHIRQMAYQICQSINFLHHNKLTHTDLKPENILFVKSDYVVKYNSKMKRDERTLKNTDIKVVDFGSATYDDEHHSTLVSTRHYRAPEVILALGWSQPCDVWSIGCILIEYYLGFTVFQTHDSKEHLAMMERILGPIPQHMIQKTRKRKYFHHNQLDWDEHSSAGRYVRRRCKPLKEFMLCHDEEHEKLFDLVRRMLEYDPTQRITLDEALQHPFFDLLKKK
Chain of UniProt O96017 (whole entry, looked up): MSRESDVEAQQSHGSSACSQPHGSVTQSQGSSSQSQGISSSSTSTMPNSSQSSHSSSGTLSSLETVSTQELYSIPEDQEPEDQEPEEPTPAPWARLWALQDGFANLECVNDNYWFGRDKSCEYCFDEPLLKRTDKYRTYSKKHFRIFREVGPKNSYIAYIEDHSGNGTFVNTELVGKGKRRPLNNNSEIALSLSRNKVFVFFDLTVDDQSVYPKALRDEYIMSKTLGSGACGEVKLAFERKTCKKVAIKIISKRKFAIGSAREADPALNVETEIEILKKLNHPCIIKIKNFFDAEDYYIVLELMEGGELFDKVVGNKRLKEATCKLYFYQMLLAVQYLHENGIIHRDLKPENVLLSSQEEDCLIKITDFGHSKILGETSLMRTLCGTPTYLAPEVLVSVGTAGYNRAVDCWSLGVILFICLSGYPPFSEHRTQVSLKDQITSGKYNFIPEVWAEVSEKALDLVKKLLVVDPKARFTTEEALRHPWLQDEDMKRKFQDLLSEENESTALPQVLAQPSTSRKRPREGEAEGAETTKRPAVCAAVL

Study 1
Structure (SMILES): CC(=O)Nc1c(C(C)=O)c(=O)n(C)c2nc(-c3ccc(Cl)cc3Cl)c(-c3ccc(Cl)cc3)cc12
Observed: cell-free assay
Method: competition with immobilised ligand
Tested at: 1 µM
The remaining binding was 100% (PRKAA1 (Homo sapiens, UniProt Q13131)).
CDK18 (Homo sapiens, UniProt Q07002) — remaining binding: 100%.
The remaining binding was 58% (PIK3CA (Homo sapiens, UniProt P42336, I800L)).
For CHEK2 (Homo sapiens, UniProt O96017): remaining binding read 100%.
For ACVRL1 (Homo sapiens, UniProt P37023): remaining binding read 100%.
ZAP70 (Homo sapiens, UniProt P43403) — remaining binding: 100%.
For MARK1 (Homo sapiens, UniProt Q9P0L2): remaining binding read 100%.

Study 2
Structure (SMILES): COc1cccc(-c2cc(=O)c3ccccc3o2)c1N
Observed: enzyme activity
Mode: inhibitor
Tested at: 0.5 µM
Baseline: control
It gave 95.4% for remaining activity (CLK3 (Homo sapiens, UniProt P49761)).
It gave 104% for remaining activity (GRK4 (Homo sapiens, UniProt P32298)).
The remaining activity was 83.8% (Cyclin-dependent kinase 1, with cyclin A (CDK1, Homo sapiens, UniProt P06493)).
MARK4 (Homo sapiens, UniProt Q96L34) — remaining activity: 77.8%.
For TLK2 (Homo sapiens, UniProt Q86UE8): remaining activity read 84.8%.
CDC42BPB (Homo sapiens, UniProt Q9Y5S2) — remaining activity: 94.8%.
PRKG2 (Homo sapiens, UniProt Q13237) — remaining activity: 101%.
For TXK (Homo sapiens, UniProt P42681): remaining activity read 94.6%.
The remaining activity was 98.3% (Cyclin-dependent kinase 9, with cyclin K (CDK9, Homo sapiens, UniProt P50750)).
AKT2 (Homo sapiens, UniProt P31751) — remaining activity: 97.4%.
The remaining activity was 86.3% (CLK4 (Homo sapiens, UniProt Q9HAZ1)).
MAPK11 (Homo sapiens, UniProt Q15759) — remaining activity: 108%.
DDR2 (Homo sapiens, UniProt Q16832) — remaining activity: 92%.

Study 3
Organism: Plasmodium berghei
Mode: inhibitor
Cells: Huh-7
Strain: GFP-expressing, liver stage
Tested at: 10 µM
Time: 24 h
Baseline: untreated control
With CC(C)[C@H](N)C(=O)OCCOCn1cnc2c(=O)nc(N)[nH]c21 the infection rate was 108%.
For CCN(CC)CCOc1ccc2c(c1)C(=O)c1cc(OCCN(CC)CC)ccc1-2, the infection rate was 35.4%.
NS(=O)(=O)c1cc2c(cc1Cl)NC(C(Cl)Cl)NS2(=O)=O (stereo not shown) gave an infection rate of 88.2%.
For CC(C)(CO)C(O)C(=O)NCCCO (stereo not shown), the infection rate was 98.2%.
For CC[C@H]1OC(=O)C[C@@H](O)[C@H](C)[C@@H](O[C@@H]2O[C@H](C)[C@@H](O)[C@H](N(C)C)[C@H]2O)[C@@H](CCN2C[C@H](C)C[C@H](C)C2)C[C@@H](C)C(=O)/C=C/C(C)=C/[C@@H]1CO[C@@H]1O[C@H](C)[C@@H](O)[C@@H](OC)[C@H]1OC, the infection rate was 114%.
The infection rate of OC(CCN1CCCC1)(c1ccccc1)C1CCCCC1 (stereo not shown) is reported as 100%.
CN1CCC(=C2c3ccccc3CCc3sccc32)CC1 has an infection rate of 80.8%.
With CCOC(=O)[C@H](CCc1ccccc1)N[C@@H](C)C(=O)N1[C@H](C(=O)O)C[C@@H]2CCC[C@@H]21 the infection rate was 102%.
With COCCOC(=O)C1=C(C)NC(C)=C(C(=O)OC(C)C)C1c1cccc([N+](=O)[O-])c1 (stereo not shown) the infection rate was 98.6%.
With NC(=O)c1cnccn1 the infection rate was 83.6%.
The infection rate of CCC1(c2ccccc2)C(=O)NCNC1=O is reported as 34.2%.
COCCCOc1ccnc(C[S+]([O-])c2nc3ccccc3[nH]2)c1C (stereo not shown) gave an infection rate of 100%.

Study 4
Organism: Sarcocystis neurona
Observed: parasite activity
Tested at: 10 µM
Time: 96 h
CO/N=C(\C(=O)N[C@@H]1C(=O)N2C(C(=O)O)=C(COC(N)=O)CS[C@H]12)c1ccco1 — result for activity class: “inactive”.
For CC1=NS(=O)(=O)c2cc(Cl)ccc2N1, activity class read “inactive”.
For Cc1ccc(S(=O)(=O)NC(=O)NN2CCCCCC2)cc1, activity class read “inactive”.
Under activity class, CN1CCC(=C2c3ccccc3CC(=O)c3sccc32)CC1 is recorded as “inactive”.
CC(C)(C)NCC(O)COc1cccc2c1CC(O)C(O)C2 (stereo not shown) — result for activity class: “inactive”.
For OC(c1cc(C(F)(F)F)nc2c(C(F)(F)F)cccc12)C1CCCCN1 (stereo not shown), activity class read “inactive”.
c1ccc(CC2=NCCN2)cc1 — result for activity class: “inactive”.
For CC(C)Oc1ccc2c(=O)c(-c3ccccc3)coc2c1, activity class read “inactive”.

For quick reference, copied from above (study 4):
c1ccc(CC2=NCCN2)cc1 — result for activity class: “inactive”.
For Cc1ccc(S(=O)(=O)NC(=O)NN2CCCCCC2)cc1, activity class read “inactive”.
CC(C)(C)NCC(O)COc1cccc2c1CC(O)C(O)C2 (stereo not shown) — result for activity class: “inactive”.
